Measured values collected from several papers.
Numbered parts are unrelated; each lists some results of a single study. Changes are numbered by the printed parent chain.

Series 1
Target: ABI1, truncated, D143A, DHFR fusion (Arabidopsis thaliana)
Method: DHFR PCA, deep sequencing
Sample: yeast
Notes: methotrexate growth selection, single substitutions
Together with: (+)-ABA 0 µM
Reference: wild-type fitted maximum
Reading: higher = stronger binding
Starting sequence: PYL1, truncated, DHFR fusion (Arabidopsis thaliana); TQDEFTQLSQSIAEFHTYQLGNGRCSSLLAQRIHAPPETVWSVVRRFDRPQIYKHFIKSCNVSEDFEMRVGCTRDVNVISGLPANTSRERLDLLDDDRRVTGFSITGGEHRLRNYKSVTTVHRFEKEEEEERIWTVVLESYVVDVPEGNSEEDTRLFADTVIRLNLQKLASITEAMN
| Change | relative binding score |
| --- | --- |
| D96L | -11.7% |
| P50C | 2.94% |
| F103P | 0.963% |
| R49Y | 4.19% |
| L8N | -4.06% |
| S27N | 39.7% |
| N114W | -1.52% |
| T17R | 1.7% |
| A158S | -9.46% |
| D75V | 28.7% |
| H110A | 35.6% |
| I57E | 6.38% |
| S63M | 2.53% |
| V143L | -5.53% |

Series 2
Target: Interferon regulatory factor 7, full length, phosphomimetic (IRF7, Homo sapiens, UniProt Q92985, residues 1-503, S471D/S472D/S475D/S476D/S477D/S483D/S484D/S487D)
Method: protein-binding microarray
Form: double-stranded DNA, one strand shown
Sample: in vitro
Concentration: 2200 nM top
Notes: 60-bp whole probe
Together with: salmon DNA 0.4 mg/ml
Reference: random background probes
Reading: higher = stronger binding
Shared flanks, not repeated: GCCTAGCAC … GTCTTGATTCGCTTGACGCTGCTG
Residues (chain): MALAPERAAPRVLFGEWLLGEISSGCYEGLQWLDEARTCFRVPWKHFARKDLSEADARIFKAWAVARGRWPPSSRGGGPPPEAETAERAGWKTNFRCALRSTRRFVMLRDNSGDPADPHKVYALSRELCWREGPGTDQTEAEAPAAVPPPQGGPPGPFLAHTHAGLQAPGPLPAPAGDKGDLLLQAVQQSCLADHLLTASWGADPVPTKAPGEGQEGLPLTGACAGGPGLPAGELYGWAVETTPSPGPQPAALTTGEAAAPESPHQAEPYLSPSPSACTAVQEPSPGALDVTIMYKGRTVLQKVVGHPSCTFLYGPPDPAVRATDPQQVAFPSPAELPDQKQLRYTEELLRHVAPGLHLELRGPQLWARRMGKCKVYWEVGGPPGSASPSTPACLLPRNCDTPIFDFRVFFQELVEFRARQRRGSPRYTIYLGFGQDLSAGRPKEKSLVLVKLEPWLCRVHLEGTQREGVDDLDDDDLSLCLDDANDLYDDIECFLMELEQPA
| Strand | fitted relative affinity |
| --- | --- |
| TTAGATTTCAGTATCGATTTGTGCTAG | 1.95 z-score |
| GACGAGTTCAGACTGGAGACGTGCTAG | -0.227 z-score |
| TTAGGTTACGGTTCCGGTTAGTGCTAG | 1.94 z-score |
| TTAGAACTGCGTCTCGATTAGTGCTAG | 0.0666 z-score |
| TTAGGGCTCGGTATCGGTTAGTGCTAG | -0.288 z-score |
| TCATACATCTCTCTTAAACTGTGCTAG | 0.865 z-score |
| TCAAGTTTCTTTTCTTTACTGTGCTAG | 5.78 z-score |
| TTAGGTATCGGTCTCGTTTAGTGCTAG | 1.11 z-score |
| GCACCTCTAGACTCTAAATTCGTGCTA | 0.658 z-score |
| GACGGTTTCGGTCTCAGGACGTGCTAG | 6.45 z-score |
| TCATGTTTGAGTCTTCTACTGTGCTAG | 1.21 z-score |
| TCAATTTTGGTTTTCCTACTGTGCTAG | 2.76 z-score |
| TTAGGAATCGGTTTCGGTTAGTGCTAG | 6.89 z-score |
| TCACTTTACTTTCTTTTACTGTGCTAG | 4.89 z-score |
| TTAGATATCGGGGATCGATTAGTGCTA | -0.0826 z-score |
| AGTGGAGTTCATTGTCATTTGTGCTAG | 0.337 z-score |
| GACGGTATCCTTCTCCTCACGTGCTAG | 1.18 z-score |

Series 3
Target: RNA binding protein fox-1 homolog 2, RRM domain, GST-SBP tag (RBFOX2, Homo sapiens, UniProt O43251-10, residues 100-194)
Method: RNA Bind-n-Seq
Form: RNA
Sample: in vitro
Concentration: 365 nM
Notes: natural RNA segment, single round, ends assumed
Reference: no-protein control
Reading: higher = stronger binding
Shared flanks, not repeated: GGGAGUUCUACAGUCCGACGAUC … UGGAAUUCUCGGGUGCCAA
Residues (chain): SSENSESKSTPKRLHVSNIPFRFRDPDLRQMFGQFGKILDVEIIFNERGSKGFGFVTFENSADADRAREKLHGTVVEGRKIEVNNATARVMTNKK
| Strand | RBNS enrichment (R) |
| --- | --- |
| UCUCCCCAUGGCCUCUUCCCCACCUCUGAUUGCUGGUUGUGGCCCCAUAGCUCAUCACCCCUGUCUCCUGCUGAAUGUGCAGGGCUGAUGUGGCACUGAGGAGCUGACUU | 0.864 |
| CCCUCAGAGUCCUUUCUCACUGUAGUUCUGUGUGCCUGUUCCCUUCAUGCCUGAGUCAGGAAUACAUGGAGAGACAGCCUACAUCUGACAGACUCCCACAAAACAAACUG | 0.463 |
| AUGCUUCGCUCCAUGGUAUGGGUGGACACCUACACUUGUCAGUAGCAGUCUUAAACUCCUCACUGCCAGGCAGGGGUGGGCUUCUGUAGGAUUUAGUGCCUGAACAUUUC | 0.327 |
| UUCCAUUACAUCUGAGGAUUCCAGAGUCCUCUGUUCAUCCCUGGGAUAGAGUGAGCCCUCUUGCGUCUUCCAGGGUAGCUCAGGUUGGCCCAGUUUGGGCCAGUCCAUUU | 0.168 |
| AACCUGGGUUAAAGACACCAGCACUUCUGCUUGCUGGGCUGGCUGGACCUGUGAAGCCAUGGGCAGGUAGUGCCCUCUUGAGAGUCAUUUUAUUUGGCCACCUUCAGGUG | 0.593 |
| UCAGUGUCCUUGGCAGGCUGAUUUCUAGGUAGGAAAUGUGGUAGCCUCACUUUUAAUGAACAAAUGGCCUUUAUUAAAAACUGAGUGACUCUAUAUAGCUGAUCAGUUUU | 0.998 |
| GAAAUGAUUGUUAACAUCACAGGCAUGGCACCGAACACUGUAGAGAUGCACAGUCAGUUGAACUUAGUAGCAACGCUGGCUUUGUGUAAUAAAGGAAGCAUUUGUAACUU | 0.537 |
| GGCUUAAAUUGGGAGUCAAGGACUAUAGUCAGGAGACCCCCAGGUACCUGGUUCAGAGCAGUCCGGGAUGAUAGGACGAGAUCCUAAAGUUCUUUCAGGGAGCUCUGCCA | 0.288 |
| ACAGUGUCAUAUACAGAUACUUCCGCAGGUCCUUAGAGUUCAAAGGGUUUUAAUCCAGGACAUAAGCAGAAAUCGCUCUCUUUAGUGAAGGGAGCAGCUGAUUUUUUCAU | 0.278 |
| GCAAUGUAGUAAAAUGAAAGAGAAUUAAGAAAGGUUUUGAAUUCUUAUAACAUAUCCAGCCAUUUCAAUUUUGAUUGAAAUGAACUACAAAGAAUAGUGUUUGUCCCUAU | 0.559 |
| AGUGUACCUCCUUGAUGGCAGCAGCUAGGCCAUGAGUUCCCAACACACAGUGAUUGACCUGGUCCCACUCCAUUGGGGAAGAAAAGAUACAGAUGUUUGGUUUGGCCAGC | 0.377 |
| UCCUUGCCUUCCCCACUCCUGUGUCCUCCCAUCUAUCCUGUCUUUCCUUUCCUCCUCUCAGUGUCCUCAGCACCCACAAGGAAUUUUCCUAUCACUGUGAACUUUGCUGG | 1.4 |

Series 4
Target: Fragile X messenger ribonucleoprotein 1, C-terminal low-complexity region (Fmr1, Mus musculus, UniProt P35922)
Method: RNA Bind-n-Seq
Form: RNA
Sample: in vitro
Concentration: 200 nM
Notes: whole 134-nt RNA, ends assumed
Together with: 150 mM KCl
Reference: input library
Reading: higher = stronger binding
Shared flanks, not repeated: GGGAGUUCUACAGUCCGACGAUC … UGGAAUUCUCGGGUGUCAAGG
| Strand | log2 enrichment |
| --- | --- |
| UGGGAGGUGGAUUUUGUUUAUUUUUUUAGCUCAUUUCCAGGGGUAGGAAUUUUUUUUUAAUAUGUGUCAUGAAUAAAGUUGUUUUUGAAA | 0.00134 |
| CUGUGCUACACAUCGUAUGUACCGAAUCGGGCCCCCCCGGGCCCCCCCGGGGCCCCCCCGGGAAAGUAUUAUGUUACGCCGUUCGGAUCU | -1.19 |
| UCAAGUCCUGUGCUACACAUCGUAUGUACCGAAUCGGGGAAGGGGAAGGAAGGGAAAGUAUUAUGUUACGCCGUUCGGAUCUGCACUUCC | 0.168 |
| CACAGACAAUACGCACCCACACAGACACAGAGGGAAGGGGUUGGGAUGGGGACAGGGUGCACAGCAGGGCGGGGUAGGACCCCAGCCCCU | 1.29 |
| ACCAUGCAGGUGGGCAUCUUUGGGAAGUGGGGCAAGGGGCGGAUAGGGAGGGGGGUAACACUUUGGGAACAGGUGGUCCCAGGUCGUUUC | 0.777 |
| UCAAGUCCUGUGCUACACAUCGUAUGUACCGAAUCGGCCGGGGCCGGGGCCGGGGAAAGUAUUAUGUUACGCCGUUCGGAUCUGCACUUC | -0.568 |
| UCAAGUCCUGUGCUACACAUCGUAUGUACCGAAUCGGGGUUGGUUGGGGUUGGGAAAGUAUUAUGUUACGCCGUUCGGAUCUGCACUUCC | 0.889 |
| CAAGUCCUGUGCUACACAUCGUAUGUACCGAAUCGGAAAGGAAAGGAAAAAAAGGAAAGUAUUAUGUUACGCCGUUCGGAUCUGCACUUC | -0.685 |
| UCCUCAAGUCCUGUGCUACACAUCGUAUGUACCGAAUCGGAAGGAAGGAAGGAAAGUAUUAUGUUACGCCGUUCGGAUCUGCACUUCCAG | 0.0611 |
| CACAGACAACACGCACCCACACAGACACAGAGGGAAGGGGUUGGGAUGGGGACAGGGUGCACAGCAGAAAGGGGUAGGACCCCAGCCCCU | 1.2 |
| GCAGGAAGUAAAAACAAAUGGAAAUGCUUCGGAUAGUGGCAGGGGUGGGGGUUGCUAAGGAAAGGGUUGGAUGGGAGUGGGUAAAGAGUU | 0.195 |
| GCAGGAAGUAAAAACAAAUGGAAAUGCUUCGGAUAGUGGCAGGGGUGGGGGAAACUAAGGAAAGGGUGGGAUGGGAGUGGGUAAAGAGUU | 0.065 |
| UGUGAGCUGACUUUUUGGAUCAACUUUACUUUUCCCUUCUUUUUAGGCAAUUGAAGAUGAAGGUGGUAAUCCUGACGAAAUUGAAAUUAC | -0.0604 |
| ACCAUGCAGGUGGUCAUCUUUGGGAAGUGGGGCAAGGGGGGGAUAGGGAGGGGGGUAACACUUUGGGAACAGGUGGUCCCAGGUCGUUUC | 0.703 |

Repeated from above (series 3):
| Strand | RBNS enrichment (R) |
| --- | --- |
| UCAGUGUCCUUGGCAGGCUGAUUUCUAGGUAGGAAAUGUGGUAGCCUCACUUUUAAUGAACAAAUGGCCUUUAUUAAAAACUGAGUGACUCUAUAUAGCUGAUCAGUUUU | 0.998 |
| GAAAUGAUUGUUAACAUCACAGGCAUGGCACCGAACACUGUAGAGAUGCACAGUCAGUUGAACUUAGUAGCAACGCUGGCUUUGUGUAAUAAAGGAAGCAUUUGUAACUU | 0.537 |
| GGCUUAAAUUGGGAGUCAAGGACUAUAGUCAGGAGACCCCCAGGUACCUGGUUCAGAGCAGUCCGGGAUGAUAGGACGAGAUCCUAAAGUUCUUUCAGGGAGCUCUGCCA | 0.288 |
| ACAGUGUCAUAUACAGAUACUUCCGCAGGUCCUUAGAGUUCAAAGGGUUUUAAUCCAGGACAUAAGCAGAAAUCGCUCUCUUUAGUGAAGGGAGCAGCUGAUUUUUUCAU | 0.278 |
| GCAAUGUAGUAAAAUGAAAGAGAAUUAAGAAAGGUUUUGAAUUCUUAUAACAUAUCCAGCCAUUUCAAUUUUGAUUGAAAUGAACUACAAAGAAUAGUGUUUGUCCCUAU | 0.559 |
| AGUGUACCUCCUUGAUGGCAGCAGCUAGGCCAUGAGUUCCCAACACACAGUGAUUGACCUGGUCCCACUCCAUUGGGGAAGAAAAGAUACAGAUGUUUGGUUUGGCCAGC | 0.377 |
| UCCUUGCCUUCCCCACUCCUGUGUCCUCCCAUCUAUCCUGUCUUUCCUUUCCUCCUCUCAGUGUCCUCAGCACCCACAAGGAAUUUUCCUAUCACUGUGAACUUUGCUGG | 1.4 |
